Measured values pooled from the literature.
Numbered parts are unrelated; each lists some results of a single study.

Sample 1
Target: Histone acetyltransferase KAT6A, winged helix 2, GST fusion (KAT6A, Homo sapiens, UniProt Q92794, residues 85-181)
Technique: protein binding microarray
Form: double-stranded DNA, one strand shown
Matrix: in vitro
Concentration: not given
Notes: 8-mer, flanks averaged, mean of 2 arrays, mostly near background
Baseline: not given
Reading: higher = stronger binding
Construct (chain): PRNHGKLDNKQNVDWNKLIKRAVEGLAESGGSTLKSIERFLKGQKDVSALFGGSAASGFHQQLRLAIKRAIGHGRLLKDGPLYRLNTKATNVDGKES
Strand | E-score
CATGCGTC | 0.00713
ATCTCTAG | -0.0366
GCCCGTAC | -0.019
AATAACTC | -0.0602
CACGGTTA | 0.00359
CTGCCTAC | 0.147
TAAATGGA | -0.0603
ACGGGTAC | -0.138
CATCAGGC | 0.00254
TATAAACA | 0.0829
AGCGATTA | -0.0992
AGGGATCA | -0.102
CGATTAAC | -0.0602
ACCGCTAT | -0.0174
AACTGGGC | -0.0443
CTCCCTCC | 0.0758
CCACGCGA | -0.0696

Sample 2
Target: Interferon regulatory factor 5, full length, phosphomimetic (IRF5, Homo sapiens, UniProt Q13568-2, residues 1-514, S451D/S453D/S456D/S462D)
Technique: protein-binding microarray
Form: double-stranded DNA, one strand shown
Matrix: in vitro
Concentration: 940 nM top
Notes: 60-bp whole probe
With: salmon DNA 0.4 mg/ml
Baseline: random background probes
Reading: higher = stronger binding
Shared flanks, not repeated: GCCTAGCAC … GTCTTGATTCGCTTGACGCTGCTG
Strand | fitted relative affinity [z-score]
GACGGTATCCTCTTCCTGACGTGCTAG | 0.456
TTAGGACTGTTTATCCTTTAGTGCTAG | 0.1
GGCGGACTGCTTTTCCTGACGTGCTAG | -0.391
TTAGAGTTCAGACTGGATTAGTGCTAG | -0.502
GACGGTCTCCTGCTGCTGACGTGCTAG | -0.353
CTGGTCTCCGGTGTTTCCTAGTGCTAG | 0.179
GACGGTATCGGGTCTGGGGACGTGCTA | 4.69
TTAGGACGGGACTATCGGTTAGTGCTA | -0.277
TTTTCCAGAGGCCCAGCCAGGTGCTAG | 0.0568
TCATTTTCATTGTTTTTCACTGTGCTA | 2.3
TTAGAACTGAGTATCGCTTAGTGCTAG | 1.19
TTAGATAGCGGGTTTCGATTAGTGCTA | 5.43
TTCAATTCCTGAAATCTCTTTGTGCTA | 0.779
CCTCCTCCCTGTTTCCATCTGTGCTAG | 0.916
GACGATAGCAGTCTCGAGACGTGCTAG | 0.721
GACGATATCGGGTTTCGCGACGTGCTA | 0.71
TTAGATTTCGGGTTTCGTTTAGTGCTA | 4.49
GACGGTTCCGGTTTCGCGACGTGCTAG | 3.89
TTAGATATCTGGACTGGATTAGTGCTA | -0.309
TTCTTTATGCACTCTTTACATGTGCTA | 1.27
TCATTTTTCTAAACCATACTGTGCTAG | 0.997
TTACGTTTCGACTTTCGGTTAGTGCTA | 6.4
TCTAATTAGAATTTAAAACAGTGCTAG | -0.281
TACGATTCCAGTTTCGAGACGTGCTAG | 3.6

Sample 3
Target: RNA binding protein fox-1 homolog 2, RRM domain, GST-SBP tag (RBFOX2, Homo sapiens, UniProt O43251-10, residues 100-194)
Technique: RNA Bind-n-Seq
Form: RNA
Matrix: in vitro
Concentration: 365 nM
Notes: natural RNA segment, single round, ends assumed
Baseline: no-protein control
Reading: higher = stronger binding
Shared flanks, not repeated: GGGAGUUCUACAGUCCGACGAUC … UGGAAUUCUCGGGUGCCAA
Residues (chain): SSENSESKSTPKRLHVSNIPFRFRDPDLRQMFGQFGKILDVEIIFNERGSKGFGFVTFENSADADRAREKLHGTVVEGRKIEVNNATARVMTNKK
Strand | RBNS enrichment (R)
UUGCACAUGUUAAGAUAAAUUAUCUUCUAAAACCUUGUUCUUGGGAGCAGUGAAUGUCACUUUACAUGGCUGUUUCUGUCACAUGUUCAUAUCUGAACAUUUUUGGUUAU | 0.339
UAUAAGCUCUUAAAAUGAGAAUGGAAGUGUCAGUAUAGACCCAGUGUACUUAAGUGCUGAUGACUGUUAGCCAGUUUACAACUUUUUACCAUCGAUGUACACAUUUGAUA | 0.438
CCUGACUGGGCUAAUGUGACACAUAUUGAGACUUAGGAAGAGCCACAAGACCACACACACAGCCCUUACCCUCCUCAGGACUACCGAACCUUCUGGCACACCUUGUACAG | 0.523
AUGAAUUCAUUGGAAUUUGUGUUGCAUGUAAGGCAAUCUUUCCUGUUGUAAAUCUUCCUUUUUUAAUGUACAUAUAUUUUGAAAAAUAUGAAUAAACAUGAAAUUUUAAA | 11.3
ACCGAUGAUUAGCAUUUAUGAUGCAGAGACAGAACAACUUCGUAUAGGACCGUACUCCUGGACACCAUUUCCACAUGUGGAUUUCUGGUUGCACCAAGAUGACAAGCAAA | 0.241
GUGGUCCCAGCUACUUGGGAGGCUGAGGCAUGAGAAUUGCUUGAACCCGGGAAGUGAAGGUUGCCGUGAGCUGAGAUCACACCACUGCCAUAAACAUGACAGGCUUUUGG | 0.987
UAACAAAAUGGGGUGUUAAUUUUUGUACAGUCUGUGGGCAUUUACACAUUUUUAAUGUAUUAAAAUUUGGUAAUUAUGUGUACAUUAAAUUAAUAAAAGUUACUUCUAGU | 1.32
AUGUAUAGAUUUCAGAAUAUAAGAUAUGACUGUACAUAAUUGUAAUAAAUACGAGUUGCCAUAUUUAUUCCUGGCUCUGACCUCGUCUGCUAGCCCGUGCCUCGGAGGUG | 0.442
GUCCCAGACAGCACAGGUCAAGCAGCGUGGGACUGUGGAGCCCCUGGCAGGCUGGCCUGGUGCUGCCCCCUUAGCCCAGAAGCCCUGCCAGGUCCAGUGGCCUGGGGUCC | 0.207
GUAUUUAAAACUAGAAUAGCCAGUAUUUAUGUUUUUUAUAAAACUGUGCAAUACGAAUUAUGCAAUCACAAUACAUUUGUAGCUCCCGAGUGUCCUAAAGGGAGUGCACU | 0.45
GUGCUGAGUUUGACCAUUACAUUCAAAACUAAAACCUGUGUAGGAAGGUUAAGGUCGUGGCAGCAGAUGCCUAGCUUCUUAUUUAAAAAGUUGAGUGCACCCAGCCAUUU | 0.723
AGAGUGUCCUUUUAGGUGGGGCGGCUAUUCUAAAAGUGUCUUUCUAUCACUGUUAAGGGGGGGGGAAAGUGAGGUUCGAGGAUGACGUAGGUAACUCUCCCCUCCCAAGU | 0.91

Sample 4
Target: RING finger protein unkempt homolog, zinc fingers 1-6, GST-SBP tag (UNK, Homo sapiens, UniProt Q9C0B0, residues 30-357)
Technique: RNA Bind-n-Seq
Form: RNA
Matrix: in vitro
Concentration: not given
Notes: RNA with constant flanks, human-mouse chimeric sites, ends assumed
Baseline: input RNA pool
Reading: higher = stronger binding
Shared flanks, not repeated: GGGAGUUCUACAGUCCGACGAUC … CAACAGAGGAUUGAGCAUCA
Target sequence (chain): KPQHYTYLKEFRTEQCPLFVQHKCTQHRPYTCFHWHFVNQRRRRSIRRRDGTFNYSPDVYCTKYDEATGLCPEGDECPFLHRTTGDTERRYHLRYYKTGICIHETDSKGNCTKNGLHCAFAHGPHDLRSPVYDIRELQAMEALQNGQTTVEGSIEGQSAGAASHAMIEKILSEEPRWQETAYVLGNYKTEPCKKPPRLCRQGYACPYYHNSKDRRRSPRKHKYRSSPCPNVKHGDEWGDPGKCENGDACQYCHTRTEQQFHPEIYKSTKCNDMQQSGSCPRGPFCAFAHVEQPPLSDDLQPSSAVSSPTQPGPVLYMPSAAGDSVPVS
Strand | bound/input enrichment [ratio]
UGGGCACUCUAUCAGAUAUAUUAAUUUUUUAAUGUAGAUGUAAUUUUAAAAAUGAAUGGCUACUUUACGUGAUAGAUUAGGGUUUUACUAUAUAUGUGUACAUAUGUAUAUAUAUAUAUA | 11.4
GUAGCUGGGACUACAGAAAUGCUGGUAAUUUCAGUCAGUGAGUCGUGACUUCUGAUGUCCCAGCAAAUGUUGGCAUUGUUGACUGCUGAGAAGAUACUUCUGAGGACCCACGUCUAAGGU | 0.0765
UUGGAAGGACCAGAGCCCAGUCAGCUCAAACCACUAGUCAUACAGGCUAUGCCCACCCUAAUAGAACUAAUGAAAGACCCCAGUGUAGUUGUUCGAGACACAACAGCGUGGACUGUGGGC | 0.7
UAACCACAUCAAGAUGGUUGGGAAGCUGAAGCAGAACUUACUCUUGGCGUGUCUGGUGAUUAGUUCUGUGACUGUGUUUUACCUGGGCCAGCAUGCCAUGGAAUGCCAUCACCGAAUAGA | 0.162
UAAAUCCUGUGCCAGCACUUCGCUCAUAAAGUUUUAAAUUCAAGAAAAAUAGUGUUUGUUUCCUGAUUAUUGUAUCCAAUACUUUGCCUAGUAUGUAACUCACUCUUACUGAUAAUAAAA | 2.52
GGCUGCUACUAUUCUCCCUGGAGUGGCUGGAGUUCCCGCCGGAGCGCGGCCAGACUAAUUUUAGAAAAUGCCAAGUAGGAAGUUUGUUGAGGGUGAAGUGGUAAGAGGCCGAUGGCCUGG | 7.42
UCUUAACGUCCAUUUAAAACUUAUUUUUAUAGCUAGAGCAAUAUUGUUAGUCUUAGACAAUAGCUCACAUUUUUUGAGAAGCAUGCCCUCCCUGUCCAUUUGUCUUAUAACAUGACCCAG | 15.1
GUAGCUGGGACUACAGAAAUGCUGGUAAUUUCAGUCACUUGCUGAUGACUUCUGAUGACCUAGCAAAUGUUGGCAUUGUUGACUGCUGAGAAGAUACUUCUGAGGACAUACAGCAGUGGU | 0.242
UAUCCAACUUUCUUGCCACAUUUUGAAUUCCAAGACAUUAUUCCUCCAGAUGACUUCCUAACGAGUGAUGAAGAAGUAGAUUUGGUUUUAUUUGGAACUAUGAGAGGACAAGUUGUUGGA | 0.465
AGGAGGAGGUUAAAGGGUGAAAAUGGGGUGGAAGACUGUGUCAUGGCUCUGGAGACACUGUUCAGUGUCCUGCUUUCUCUGUGCAGACUGAUGGCCCCCUACACACCCUUUCUGACUGAG | 0.0498
UCGGAUGCUGUGCUGGGUCACUUUCCGUAUCCAGAUCCUUCACAGUGGACAGAUGAAGAACUGGGAAUCCCUCCUGAUGACGAGGACUGAAGGUGUAAACUCUCUGGACGAGUAGGAGCA | 0.481

For quick reference, copied from above (sample 1):
Strand | E-score
CTGCCTAC | 0.147
AGGGATCA | -0.102
ACCGCTAT | -0.0174
AATAACTC | -0.0602
TATAAACA | 0.0829
GCCCGTAC | -0.019
CACGGTTA | 0.00359
ACGGGTAC | -0.138
CCACGCGA | -0.0696
CTCCCTCC | 0.0758
